Measurements pooled from the literature.
A part holds a random share of what one study measured. “And” joins repeats or separate records; there may be more than shown. Positions count from the first letter of the parent shown.
Sequence of UniProt O15294 (whole entry, looked up): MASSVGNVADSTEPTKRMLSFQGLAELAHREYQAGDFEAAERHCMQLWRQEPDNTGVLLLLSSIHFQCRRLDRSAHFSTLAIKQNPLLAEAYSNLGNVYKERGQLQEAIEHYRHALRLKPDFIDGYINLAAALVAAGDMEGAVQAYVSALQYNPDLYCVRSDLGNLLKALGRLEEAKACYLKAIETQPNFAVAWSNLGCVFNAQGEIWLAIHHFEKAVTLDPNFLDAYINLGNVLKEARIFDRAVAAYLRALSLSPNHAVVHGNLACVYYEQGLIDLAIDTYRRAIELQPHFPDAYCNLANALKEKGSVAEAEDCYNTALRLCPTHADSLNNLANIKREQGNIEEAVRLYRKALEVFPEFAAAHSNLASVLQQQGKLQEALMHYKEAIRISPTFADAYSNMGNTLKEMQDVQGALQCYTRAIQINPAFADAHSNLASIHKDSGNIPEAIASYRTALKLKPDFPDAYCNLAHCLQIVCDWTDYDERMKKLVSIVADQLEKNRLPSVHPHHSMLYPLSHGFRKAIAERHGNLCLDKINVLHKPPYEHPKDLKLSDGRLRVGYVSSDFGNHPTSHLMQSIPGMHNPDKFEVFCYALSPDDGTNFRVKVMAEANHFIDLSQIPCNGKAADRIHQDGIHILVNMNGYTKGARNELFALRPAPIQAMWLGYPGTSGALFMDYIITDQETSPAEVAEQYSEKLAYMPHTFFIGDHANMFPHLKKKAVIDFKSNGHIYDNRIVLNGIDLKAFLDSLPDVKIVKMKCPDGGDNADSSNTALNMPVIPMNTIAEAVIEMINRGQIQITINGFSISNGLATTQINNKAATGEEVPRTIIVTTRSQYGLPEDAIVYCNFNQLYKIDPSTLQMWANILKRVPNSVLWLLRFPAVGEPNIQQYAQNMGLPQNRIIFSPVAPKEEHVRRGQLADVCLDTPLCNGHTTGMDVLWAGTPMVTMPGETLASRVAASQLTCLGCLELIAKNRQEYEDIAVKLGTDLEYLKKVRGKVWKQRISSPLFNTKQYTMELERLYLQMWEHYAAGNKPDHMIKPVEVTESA

Sample 1 — target: CCNB1, cyclin fold, Cln2 fusion (human); technique: yeast growth competition, sequencing; sample: yeast; notes: weak parent motif; relative to: not given; direction: higher = stronger binding; measurement: normalised enrichment score
Starting sequence: RB1 docking peptide (human); PKPLKKLRFDIEG
L7M: 0.695
R8S: 0.419
K6N: 0.332
E12T: 0.892
E12I: 1.04
D10E: -0.236
K5D: 0.188
P1N: -0.0121

Sample 2 — technique: protein binding microarray; form: double-stranded DNA, one strand shown; sample: in vitro; concentration: not given; relative to: not given; direction: higher = stronger binding; measurement: E-score
Target: Histone acetyltransferase KAT6A, both winged helices, GST fusion (KAT6A, Homo sapiens, UniProt Q92794, residues 1-181)
Notes: 8-mer, flanks averaged, mean of 2 arrays, mostly near background
Construct (chain): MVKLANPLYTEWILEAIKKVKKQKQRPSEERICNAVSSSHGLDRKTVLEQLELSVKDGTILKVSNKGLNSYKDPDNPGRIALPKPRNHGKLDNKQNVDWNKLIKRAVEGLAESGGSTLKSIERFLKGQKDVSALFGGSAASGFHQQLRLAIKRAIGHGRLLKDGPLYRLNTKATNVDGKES
TCAGAACA: -0.0691
ATCGACCA: -0.144
ACAAACAC: 0.059
TTACTAAA: -0.0887
CCACAAAG: -0.13
CACTCCCC: 0.038
AGACGCAC: 0.122
ACCGGAAA: 0.15

Sample 3 — technique: protein-binding microarray; form: hairpin DNA; sample: in vitro; concentration: not given; relative to: not given; direction: higher = stronger binding; measurement: median fluorescence; constant ends, left off below: GCAGGCCC … GGGCCTGCACACTCTTTCCCTACACGAC
Target: Transcription factor SOX-2, HMG box (SOX2, Homo sapiens, UniProt P48431, residues 37-118)
Sequence of UniProt P48431 (37-118, looked up): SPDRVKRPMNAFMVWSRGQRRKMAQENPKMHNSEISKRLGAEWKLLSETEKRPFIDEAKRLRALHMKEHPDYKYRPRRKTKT
Notes: whole hairpin DNA, median over replicate spots
ACACGGGGCCTCCTGGCCCCGTGT (5mC at 12 28): 2320 a.u.
ACACAGGGCCTCCTGGCCCTGTGT (5mC at 12): 2470 a.u.
ACAACGGGCCTCCTGGCCCGTTGT (5mC at 13 27): 2350 a.u.
ACAACCGGCCTCCTGGCCGGTTGT (5mC at 13): 2450 a.u.
TCAATGGGCCTCCTGGCCCATTGA (5mC at 8): 3150 a.u.
ACACCGGGCCTCCTGGCCCGGTGT (5mC at 12): 2350 a.u.
GCAATGGGCCTCCTGGCCCATTGC (5mC at 8): 2430 a.u.
ACAAGGGGCCTCCTGGCCCCTTGT: 2310 a.u.

Further values, each from its own experiment
QNYRPFYMINISSGS
enrichment fold change (UDP-N-acetylglucosamine--peptide N-acetylglucosaminyltransferase 110 kDa subunit (OGT, Homo sapiens, UniProt O15294); binding, phage display NGS; peptide; concentration not given; relative to: input library): 1.92 and 3.24

Repeated from above (further values, each from its own experiment):
QNYRPFYMINISSGS
enrichment fold change (UDP-N-acetylglucosamine--peptide N-acetylglucosaminyltransferase 110 kDa subunit (OGT, Homo sapiens, UniProt O15294); binding, phage display NGS; peptide; concentration not given; relative to: input library): 1.92 and 3.24
